Measurements pooled from the literature.
Numbered parts are unrelated; each lists some results of a single study.

Sample 1 — technique: universal PBM; molecule type: double-stranded DNA, one strand shown; medium: in vitro; concentration: not given; reading: higher = stronger binding
Target: Sal-like protein 4, full length isoform B (SALL4, Homo sapiens, UniProt Q9UJQ4-2, residues 1-616)
Setting: 8-mer, flanks averaged, mean of replicates
Strand | E-score
CCATCCCC | -0.249
CACTAGAC | -0.0246
GGGGTTGA | -0.134
ATACCTCC | -0.0672
ACCAGCGG | -0.24
AGAATTAG | 0.0854
GGAGGTTA | 0.0474
GCACGAAC | 0.0353
GAATGGCC | -0.251
GAATGTTA | 0.125
CCGGAGGA | -0.31
AGCGTGCC | -0.237
AGAGTACT | 0.0599
ACTTCCCA | 0.014
GAGAATAA | 0.202
AGGATCTA | -0.0284
ACATCTAC | 0.191
CCTCCTGA | -0.163
CGGACGAC | -0.316
AGCACTAC | 0.0055
CTGTTATA | 0.304
GGCAGGAC | -0.256
ATTCTGCG | -0.0677
ACCCACCA | -0.126
AGGGACAT | 0.0293

Sample 2 — technique: protein-binding microarray; molecule type: double-stranded DNA, one strand shown; medium: in vitro; concentration: not given; reading: higher = stronger binding
Target: Runt-related transcription factor 1 (RUNX1, Homo sapiens, UniProt Q01196, residues 1-453, full length assumed)
Sequence of UniProt Q01196 (whole entry, looked up): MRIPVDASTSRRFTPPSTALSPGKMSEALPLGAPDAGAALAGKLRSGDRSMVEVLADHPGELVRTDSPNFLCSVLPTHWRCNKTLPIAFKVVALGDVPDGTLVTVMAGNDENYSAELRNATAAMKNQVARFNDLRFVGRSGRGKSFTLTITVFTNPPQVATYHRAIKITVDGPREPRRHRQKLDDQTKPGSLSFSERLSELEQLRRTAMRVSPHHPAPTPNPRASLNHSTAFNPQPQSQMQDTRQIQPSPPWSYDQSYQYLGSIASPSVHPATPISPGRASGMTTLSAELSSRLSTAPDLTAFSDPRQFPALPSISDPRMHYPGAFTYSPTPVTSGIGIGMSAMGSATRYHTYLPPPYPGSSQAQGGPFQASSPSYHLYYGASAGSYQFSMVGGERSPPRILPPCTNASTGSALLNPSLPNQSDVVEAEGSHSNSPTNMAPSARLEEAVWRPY
Setting: k-mer, scored over probes, only values ≥0.25
Strand | E-score
TGGTAAA | 0.301
CAACCGC | 0.408
ACCACAC | 0.39
CATGCGG | 0.288
CATTACC | 0.294
AACCACG | 0.332
TAAACCA | 0.302
AGTGGTA | 0.279
CCACACC | 0.263
CCACACG | 0.26
AACCGCG | 0.46
CACAAAA | 0.327
CCGCAGG | 0.286
CCGCAGA | 0.4
CCGCACA | 0.288
CCACAAC | 0.342
CACCGCA | 0.368

Sample 3 — technique: RNA Bind-n-Seq; molecule type: RNA; medium: in vitro; concentration: 200 nM; setting: whole 134-nt RNA, ends assumed; with: 150 mM LiCl; relative to: input library; reading: higher = stronger binding; each molecule: 7-deaza-guanosine replaces G
Target: Ras GTPase-activating protein-binding protein 1, full length (G3BP1, Homo sapiens, UniProt Q13283)
Sequence of UniProt Q13283 (whole entry, looked up): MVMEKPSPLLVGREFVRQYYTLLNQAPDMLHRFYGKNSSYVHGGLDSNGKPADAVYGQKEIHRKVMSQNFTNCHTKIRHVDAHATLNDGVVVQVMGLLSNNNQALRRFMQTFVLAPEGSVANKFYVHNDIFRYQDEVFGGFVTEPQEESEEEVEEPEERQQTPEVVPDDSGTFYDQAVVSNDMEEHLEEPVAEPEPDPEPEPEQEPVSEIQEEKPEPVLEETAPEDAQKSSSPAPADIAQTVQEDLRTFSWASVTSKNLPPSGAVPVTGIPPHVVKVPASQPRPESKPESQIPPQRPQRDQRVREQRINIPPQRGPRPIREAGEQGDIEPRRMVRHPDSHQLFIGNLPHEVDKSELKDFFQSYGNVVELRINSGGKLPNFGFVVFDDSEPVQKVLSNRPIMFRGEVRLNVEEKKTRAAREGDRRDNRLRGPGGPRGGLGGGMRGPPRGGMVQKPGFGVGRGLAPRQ
All sequences stand within: GGGAGUUCUACAGUCCGACGAUC … UGGAAUUCUCGGGUGUCAAGG
Strand | log2 enrichment
AGUCCUGUGCUACACAUCGUAUGUACCGAAUCGGGGAAAAAAAGGGGAGGGGUGGGGAAAGUAUUAUGUUACGCCGUUCGGAUCUGCACU | -0.189
UCCUGUGCUACACAUCGUAUGUACCGAAUCGGUUUUUUGGGUUUUUUGGGUUUUUUGGGAAAGUAUUAUGUUACGCCGUUCGGAUCUGCA | 0.268
GCAGGAAGUAAAAACAAAUGGAAAUGCUUCGGAUAGUGGCAGGGGUGGGGGUUGCUAAGGAAAGGGUGGGAUCGGAGUGGGUAAAGAGUU | -0.172
UUUGUGAGACAUGUGAAAGGAGGACAUGGUCACAGUCAUGGACAUGGACACGCUCACAGUCAUACACGUGGAAGUCAUGGACAUGGAAGA | -3.56
UCUCUUGCUCAAGUUUUCUCUCACAGAUGACAGCCACCUACCACAUAACAUGACCAGCAAACGGACUGUUCCUAGUCCAGAGGGCCUUGC | 1.46
UCCUGUGCUACACAUCGUAUGUACCGAAUCGGGUUUUUUGGUUUUUUGGGGUUUUUUGGAAAGUAUUAUGUUACGCCGUUCGGAUCUGCA | 0.483
CCUGUGCUACACAUCGUAUGUACCGAAUCGGAAAAAAAGGGGAAAAAAAGGAAAAAAAGGGAAAGUAUUAUGUUACGCCGUUCGGAUCUG | 0.0661
AGUCCUGUGCUACACAUCGUAUGUACCGAAUCGGGAGGGUUUUUUUGGGUUUUUGGGAAAGUAUUAUGUUACGCCGUUCGGAUCUGCACU | -0.856
CCUCAAGUCCUGUGCUACACAUCGUAUGUACCGAAUCGGGGAAGGAAGGAAGGAAAGUAUUAUGUUACGCCGUUCGGAUCUGCACUUCCA | -1.05
AGUCCUGUGCUACACAUCGUAUGUACCGAAUCGGGUUUGGGUUUGGGUUUUUUUGGGAAAGUAUUAUGUUACGCCGUUCGGAUCUGCACU | -0.861
AAGUCCUGUGCUACACAUCGUAUGUACCGAAUCGGGGUUUGGGGUUUGGGGUGGGGAAAGUAUUAUGUUACGCCGUUCGGAUCUGCACUU | -0.254

Sample 4 — technique: RNAcompete; molecule type: RNA; medium: in vitro; concentration: 20 nM; setting: 7-mer, probes averaged, single round; relative to: mean of 7-mers; reading: higher = stronger binding
Target: PABPC1L2, full length, GST fusion (mouse, UniProt A0ABA7IW68)
Target sequence (chain): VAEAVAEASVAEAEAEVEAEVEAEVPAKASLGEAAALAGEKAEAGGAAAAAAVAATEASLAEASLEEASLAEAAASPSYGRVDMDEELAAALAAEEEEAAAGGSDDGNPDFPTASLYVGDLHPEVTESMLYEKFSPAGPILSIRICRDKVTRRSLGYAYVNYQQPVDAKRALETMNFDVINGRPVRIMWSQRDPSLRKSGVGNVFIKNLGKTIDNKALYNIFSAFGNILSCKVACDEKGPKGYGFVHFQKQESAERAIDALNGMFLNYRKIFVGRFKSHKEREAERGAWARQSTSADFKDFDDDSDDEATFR
Strand | 7-mer Z-score
UAAGAUA | -0.193
CAUACGU | -0.215
AGUUUAU | -0.28
UGCCAGU | -0.333
CUUCGUC | -0.498
AUUUGAU | -0.173
ACAGUCA | -0.0192
CGGGGGU | 0.236
UUUUGUG | -0.345
GCAAGGG | 0.347
UGCAGUG | -0.309
CGCAGAU | -0.166
UUCUAUG | -0.38
AAGAGCC | 0.782
CCCGAAC | -0.144
CGCCUGG | -0.289
UCUCGGA | -0.0772
AACACAG | 0.408
GGUCCGA | 0.066
GGAAGAC | 0.017
CCAAUGG | -0.199
CCGAGCU | -0.235
ACUCCAU | -0.0772
GGGCCGC | -0.0989
AUCCCAC | -0.3

Sample 5 — technique: protein binding microarray; molecule type: double-stranded DNA, one strand shown; medium: in vitro; concentration: not given; relative to: not given; reading: higher = stronger binding
Target: Histone acetyltransferase KAT6A, both winged helices, GST fusion (KAT6A, Homo sapiens, UniProt Q92794, residues 1-181)
Setting: 8-mer, flanks averaged, mean of 2 arrays, mostly near background
Residues (chain): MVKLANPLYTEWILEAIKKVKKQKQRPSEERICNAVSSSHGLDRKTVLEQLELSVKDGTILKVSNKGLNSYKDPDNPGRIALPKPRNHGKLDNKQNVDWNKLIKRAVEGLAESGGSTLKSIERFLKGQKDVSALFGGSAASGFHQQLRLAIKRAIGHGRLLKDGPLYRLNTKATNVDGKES
Strand | E-score
CTTGAGAC | -0.0139
GCATCGCA | 0.0265
CAGAGGTA | -0.194
TGGTTCAA | -0.0666
AAGATTGG | -0.0696
AGGCCGAC | 0.0433
AGTTTTCA | -0.0364
AATTTGGG | -0.239
GTCTGAAC | 0.0258
CTCGTAGA | -0.181
CATAATCC | -0.0888
CGCTGAAC | 0.166
CAAGTCGC | -0.00918
GTTAATCA | -0.0319
GGTTTGCA | -0.0424
ACTGTCCT | -0.0897
CTACCTGA | -0.199
CCGATTCC | 0.228
CTAACCAA | -0.145

Sample 6 — technique: RNA Bind-n-Seq; molecule type: RNA; medium: in vitro; concentration: not given; relative to: input RNA pool; reading: higher = stronger binding
Target: RING finger protein unkempt homolog, zinc fingers 1-6, GST-SBP tag (UNK, Homo sapiens, UniProt Q9C0B0, residues 30-357)
Setting: RNA with constant flanks, human-mouse chimeric sites, ends assumed
All sequences stand within: GGGAGUUCUACAGUCCGACGAUC … CAACAGAGGAUUGAGCAUCA
Construct (chain): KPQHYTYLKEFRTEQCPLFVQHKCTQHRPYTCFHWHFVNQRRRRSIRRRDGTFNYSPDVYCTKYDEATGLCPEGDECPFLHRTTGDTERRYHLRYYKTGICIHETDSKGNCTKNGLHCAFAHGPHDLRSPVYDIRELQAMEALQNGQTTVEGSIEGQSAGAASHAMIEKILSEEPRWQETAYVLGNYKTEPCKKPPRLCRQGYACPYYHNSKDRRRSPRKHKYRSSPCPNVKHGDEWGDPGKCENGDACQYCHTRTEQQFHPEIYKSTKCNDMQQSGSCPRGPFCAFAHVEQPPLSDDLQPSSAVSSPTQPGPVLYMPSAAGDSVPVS
Strand | bound/input enrichment [ratio]
CAGCCUCAGAGCCCAGACUUCCUGGAUAUUACCAACCCUAAAGCGGUAUUAGAAAAUGCACUUAGGAACUUCGCCUGUCUGACGACUGGAGAUGUGAUUGCUAUCAACUACAAUGAGAAG | 0.661
AAAGAACCUCUCUCUGAUGAAGAUGAGGAAGACAAUGAUGAUGUUGAACCUAUUACUGAAUUUCGAUUUGUGCCUAGUGAUAAGUCAGCAUUGGAGGCGAUGUUCACAGCAAUGUGUGAG | 0.376
AUGGAGAAGGAUUCUCUGCCCCGCUUUGUGCGCUCUGAAUUUUAUAAGGAGUUAAUCAAGUAGUAAUCUGGUCAGGCUUCCAAAAGUUGCCCUGUGAGUUGAGUUACAUCCUUUGUAGCA | 0.314
CAGUCCCGCGACAGCGUUGCAGGACGAUGUGAACAAAAACUCAAAGCGGACCCUCUAUUGUAGUUCUUGAUUCUCGAAAUGUGCUAUUAUUGUUUGUCUUUUUUUUUAAAAGAAAAGAGA | 0.215
UGACAAGGGCACUGCAGGGCCAUGCCUUUCCUUGACAUCCAGAAAAGGCUGGGCAUCAGCCUGGACCGGCACUUUAUGUUCCUAAGCGCAGAACAGCCCUAUAAGAACGCCGCUCGGUGC | 0.0433
AUGGAACAUUUCGAUGCGUCACUCAGUACCUAUUUCAAGGCCUUCCUGGGCCCCCGAGAUACUAGAGUCAAAGGAUGGUUCCUCCUGGACAAUUACAUCCCUACGUUUAUCUGCUCUGUU | 0.0729
CACAGAGGCACCACCCCCCCCUCCUCCUUUCCACACCUGCAAACUCUUUUACUUGGGCUGAAUAUUUAGUGUAAUUACAUCUCAGCUUUGAGGGCUCCUGUGGCAAAUUCCCGGAUUAAA | 1.87
AACUUCGUACAUAGAUUUCCCUUUGUAGCUGUUUCAAUUGGCUUCCUUGUGAAUAAAAAGAUAGAAUUUGGAAUUGUGUACAGCUGUGUGGAAGAUAAGAUGUACACCGGCAGGAAAGGG | 4.73
AUAAAGGCCAUGUUGAGUGGUCCAGGUCAGUUUGCUGAGAAUGAAACCAACGAGGUCAAUUUUAGAGAGAUCCCCUCACAUGUGCUAUCAAAAGUGUGCAUGUAUUUUACGUACAAGGUC | 0.23
AAAGAGUGGAUAGAGUGUGCACACGGGAUCGGUGGGACCCGGGCGAAAAAGGAGUGCAAGAUAGAAUUCGAUGACUUCGAAGAGUGCUUGCUUCGGUACAAAACGAUGAGACGUGCACAU | 0.254
GAAACAUUUAAAUUUAAAGAAGCUGUUGUUCUAGGAAGUACGGACUUUCUAGAAGAUGAUAUAGAGAAAAUUGUAGAAGAACUGGGAAAAGAGUAUAAGGGCAACGCUUAUCAUUUAAUG | 1.5
